Measurements pooled from the literature.
A part holds a random share of what one study measured.

Series 1
Target: RING finger protein unkempt homolog, zinc fingers 1-6, GST-SBP tag (UNK, Homo sapiens, UniProt Q9C0B0, residues 30-357)
Method: RNA Bind-n-Seq
Form: RNA
Medium: in vitro
Tested at: not given
Setting: RNA with constant flanks, human and mouse sites, ends assumed
Baseline: input RNA pool
Direction: higher = stronger binding
Constant ends, left off below: GGGAGUUCUACAGUCCGACGAUC … CAACAGAGGAUUGAGCAUCA
Construct (chain): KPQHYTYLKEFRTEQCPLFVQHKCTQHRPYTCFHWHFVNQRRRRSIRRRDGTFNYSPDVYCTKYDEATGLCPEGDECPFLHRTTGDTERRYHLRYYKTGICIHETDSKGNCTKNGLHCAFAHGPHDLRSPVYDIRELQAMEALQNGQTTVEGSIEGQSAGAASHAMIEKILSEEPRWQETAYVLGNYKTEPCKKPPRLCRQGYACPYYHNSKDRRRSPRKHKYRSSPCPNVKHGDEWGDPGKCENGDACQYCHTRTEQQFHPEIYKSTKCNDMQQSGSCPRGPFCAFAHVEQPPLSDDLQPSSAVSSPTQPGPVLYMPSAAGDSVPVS
Strand | bound/input enrichment [ratio]
UGAGGGGAGCGUCCAGGUCCCGCGUCGCGCGUCGCGGGUCGCCUAGCGUUUCCCGCUGGUUUUGUCGCUUUCCGGAUUCUCGAGCCUCUUCAGGACCGUCACCAUGGAGUUGUCACCGCU | 0.0632
AUCUGUAAGCCUUUGGUGGAAGAUAAUGAAGAAGAAAGUUGUUAUAUUUUACAUUCAAGCAGUAAUGAAGACAAGACUGAAUUUUCAGGAACAAUUCAUGAUAUAAAUUCAUCUUUAAUA | 0.146
CCAGAAUACACCAAAAAAAUAGAAAACCUCUGUGCUAUGGGUUUUGAUAGGAACGCAGUAAUAGUGGCCUUGUCUUCAAAAUCAUGGGAUGUAGAGACUGCAACAGAACUGCUUCUGAGU | 0.499
GAGAAUCUGGAACUAAUGUCACAGCAUGGAUGUAAUGCCUGGAAAGUAUACAAUGAAAAUCUAGUUCAUAUGAUUGAACACGCACAGAAGGAACUUCAGAAGUUAAGAAAACAUAUUCAA | 0.405
UAAAAUCUUUGUACUUUUUACAUGAUUGCUGUAUGUAUAUUUUGUUUUAAAUCUAAUAAAAUUAGGGACAGAGAGUGACUCGCUGGGGUUCUUGGGGUCCUUGAGAAUUAAAUUUGUCAA | 0.323
UCCAGACAGGAAGAACAAAACCCAUUCUAGCACUUUCAUUUUUAAAAAAAAAAAGGUUUAUAGCUUUUUGUUCCGCCCUCCUCCUCCCCAUUUCACAAUGUCCAUUCCUUAAGAAGGGUU | 12.7
UCUUUAUGUUUUUUUCAUUGUUUUAAUGUCACGUGGAUUGUCUUUCCUGGGCUCUUUGUGAGCAGAAGGAUUUCAGAGAAGCUCGCAUAAUGAAAAGGGGAGACUCAUGGAUCUCACAAG | 0.282
AUCAUUCAUGACCCUGGCCGCGGCGCUCCCCUCGCCAAAGUCGUCUUUCGGGAUCCCUACCGAUUCAAGAAGCGGACAGAGCUGUUCAUCGCAGCGGAGGGGAUCCACACUGGACAGUUC | 0.0357
UUUAUGAUAGUUUUGUUAGGUGACAGGACCAAAUGAAAAUAUUUUAUGUUUUCUCAUCACUUUAGAUUUUAUCAUUAUGUACAUUACUGGGUUUUUAGCAUUUCCUAAUGUGAAGUUUUA | 2.14
CGAAUGAGAAACCAAUCCCUUGGACAGUCUGCACCUUCCCUUACGGCUGGCUUGAAGGAAUUGAGCCUUCCAAGGAGAGGCAGCUUUUGUCGGACAAGUAACCGCAAGAGCUUGAUUGUA | 0.092
AUCCACAGUCUGAUGGGCAACUUUGAAAAUGCUGUGGACUACUUCCACACAGCCCUUGGUCUUAGGCGAGAUGAUACAUUUUCUGUUACAAUGCUUGGUCAUUGCAUCGAAAUGUACAUU | 0.128

Series 2
Target: Prothrombin, mature alpha-thrombin (F2, Homo sapiens, UniProt P00734)
Method: aptamer microarray, sandwich
Form: DNA with 2'F-ANA
Medium: in vitro
Tested at: 200 nM
Setting: whole 15-mer aptamer, many near background
With: Cy3 exosite-II aptamer, 400 nM
Direction: higher = stronger binding
Strand: GGTTGGTGTGGTTGG
Modification | mean fluorescence intensity [a.u.]
2'F-ANA at 5 6 8 10 12 | 48.6
2'F-ANA at 1 2 5 7 8 9 11 12 13 | 71.7
2'F-ANA at 2 3 5 7 10 11 12 13 14 | 48.1
2'F-ANA at 1 3 4 5 6 9 11 12 13 | 104
2'F-ANA at 2 5 8 10 11 13 14 15 | 96.3
2'F-ANA at 3 4 5 6 7 8 | 116
2'F-ANA at 3 4 6 7 11 12 14 | 318
2'F-ANA at 4 8 9 12 13 15 | 372
2'F-ANA at 1 3 5 7 9 12 | 138
2'F-ANA at 2 3 5 7 8 15 | 123
2'F-ANA at 1 2 5 7 8 9 10 11 13 | 50.6
2'F-ANA at 1 3 4 9 11 12 15 | 284
2'F-ANA at 1 2 5 6 7 8 10 11 13 15 | 48.8
2'F-ANA at 1 2 4 6 8 10 12 13 14 | 48.6
2'F-ANA at 2 4 9 | 337
2'F-ANA at 3 4 6 8 9 10 14 15 | 198

Series 3
Target: Centromere-binding protein 1, full length, N-terminal tag (CBF1, Saccharomyces cerevisiae, UniProt P17106, residues 1-351)
Sequence of UniProt P17106 (whole entry, looked up): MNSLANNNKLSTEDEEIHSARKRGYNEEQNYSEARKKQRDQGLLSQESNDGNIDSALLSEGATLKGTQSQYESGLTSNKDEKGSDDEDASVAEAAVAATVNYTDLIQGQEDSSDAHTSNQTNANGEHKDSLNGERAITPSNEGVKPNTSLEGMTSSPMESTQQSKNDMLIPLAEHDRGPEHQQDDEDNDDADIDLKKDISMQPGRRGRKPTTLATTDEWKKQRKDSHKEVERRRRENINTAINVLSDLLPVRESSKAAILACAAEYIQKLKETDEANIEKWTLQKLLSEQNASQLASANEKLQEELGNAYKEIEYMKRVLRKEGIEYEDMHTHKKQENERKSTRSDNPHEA
Method: protein-binding microarray
Form: double-stranded DNA, one strand shown
Medium: in vitro
Tested at: 0.8 µM
Setting: whole 60-bp probe, no competitor
Direction: higher = stronger binding
Constant ends, left off below: … GTCTTGATTCGCTTGACGCTGCTG
Strand | fluorescence intensity [a.u.]
GAATAAAGCAGAAATCACGATTCAAAAAAAAAATAG | 717
GAAATTGTTTATTTACACGCAACCCCAGGACATTAG | 576
CTAGGAAAAAAACGTGACGCCTTTTAGCACAAATTC | 4170
GAATGGAGCCTTGCCCACTTCCTCGATCGGAATTAG | 478
CTATATAGTGATCGTGGTCATAAATTAATAAAATTC | 610
TGTACGAAGCTATATCAGTTGAATATAGTAGTTAGG | 552
GAAATATAACAAGCGTACGTGATCCCTTTCATTTAG | 615
GAAGTTTATCCTTTTCACGTTCTAAAAATCAATTAG | 693
GAAAATAATCATATGCACGATGCACACTCTATATAG | 637
GAACCATTATACACTTTCACCTGTTGCTGAGTGTAG | 509
GAATACCGCAAGCACCACCAACACACCCGCCGCTAG | 503
GAACAATTTTCCAGCCACACGTGAAGTAAGCTGTAG | 2000
CTAAACAGTGAAACCGTGGTCAGCAGCGTTCAATTC | 592
GAACTTAACTGTACAAACGTGTATGAAGTATTGTAG | 569
CTAAGTAGAATACTACACGTGCAATCGGTAGCATTC | 3560
CCTAACTACTATATGCATGTTATATAGCTTCGTACA | 514
CTATACCACATGCTTCACATGTACAGAAAGTGGTTC | 1310
TGTACGAAGCTATGTCACGAAGATATAGTAGTTAGG | 563
GAAAATGATAGACTGATCAGTACATCTTCAATTTAG | 526

Series 4
Target: Ras GTPase-activating protein-binding protein 1, full length (G3BP1, Homo sapiens, UniProt Q13283)
Sequence of UniProt Q13283 (whole entry, looked up): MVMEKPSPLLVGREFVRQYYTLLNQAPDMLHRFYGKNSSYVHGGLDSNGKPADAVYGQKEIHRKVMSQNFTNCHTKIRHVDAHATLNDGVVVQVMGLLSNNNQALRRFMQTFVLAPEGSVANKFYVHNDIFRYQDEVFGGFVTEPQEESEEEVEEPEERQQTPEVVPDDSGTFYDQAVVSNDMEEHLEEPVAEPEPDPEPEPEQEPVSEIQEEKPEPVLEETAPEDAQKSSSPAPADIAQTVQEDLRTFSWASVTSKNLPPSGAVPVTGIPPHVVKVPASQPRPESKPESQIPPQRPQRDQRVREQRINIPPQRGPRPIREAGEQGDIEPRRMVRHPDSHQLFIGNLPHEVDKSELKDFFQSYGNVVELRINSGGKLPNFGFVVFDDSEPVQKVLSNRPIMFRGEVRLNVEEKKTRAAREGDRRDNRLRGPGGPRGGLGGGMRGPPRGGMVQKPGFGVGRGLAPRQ
Method: RNA Bind-n-Seq
Form: RNA
Medium: in vitro
Tested at: 200 nM
Setting: whole 134-nt RNA, ends assumed
With: 150 mM KCl
Baseline: input library
Direction: higher = stronger binding
Constant ends, left off below: GGGAGUUCUACAGUCCGACGAUC … UGGAAUUCUCGGGUGUCAAGG
Strand | log2 enrichment
UCCUGUGCUACACAUCGUAUGUACCGAAUCGGGUUUGGGAAAAAAAGGGUUUUUUUGGGAAAGUAUUAUGUUACGCCGUUCGGAUCUGCA | -0.236
CUGUGCUACACAUCGUAUGUACCGAAUCGGCCCCCCCGGGCCCCCCCGGGGCCCCCCCGGGGAAAGUAUUAUGUUACGCCGUUCGGAUCU | -1.28
GUCCUGUGCUACACAUCGUAUGUACCGAAUCGGGUUUUUGGGGUUUUUGGGUUUUUGGAAAGUAUUAUGUUACGCCGUUCGGAUCUGCAC | -0.462
UCCUGUGCUACACAUCGUAUGUACCGAAUCGGGCCCCCGGGGCCCCCGGGGCCCCCGGGAAAGUAUUAUGUUACGCCGUUCGGAUCUGCA | 0.167
UAACUUUAGAGGAGGAUCUGAUGGAUAUGGCAGUGGACGUGGAUUUGGGGAUGGCUAUAAUGGGUAUGGAGGAGGACGUGGAGGUGGCAA | 0.819
CCUCAAGUCCUGUGCUACACAUCGUAUGUACCGAAUCGGUUUUUGGAGGUGGAAAGUAUUAUGUUACGCCGUUCGGAUCUGCACUUCCAG | -0.0834
GUCCUGUGCUACACAUCGUAUGUACCGAAUCGGGGAGGGGAAAAAGGGGUUUUUGGGGAAAGUAUUAUGUUACGCCGUUCGGAUCUGCAC | 0.579
UAACUUUAGAGGAGGAUCUGAUGGAUAUGGCAGUGGACGUGGAUUUGGGGAUGGCUUUAAUGGGUAUGGAGGAGGACCUGGAGGUGGCAA | 0.22
UCCUGUGCUACACAUCGUAUGUACCGAAUCGGGAAAAAGGGGAAAAAGGGGAAAAAGGGAAAGUAUUAUGUUACGCCGUUCGGAUCUGCA | -0.0294
UCCUGUGCUACACAUCGUAUGUACCGAAUCGGGGUUUUUGGGGAAAAAAAGGGGAGGGGAAAGUAUUAUGUUACGCCGUUCGGAUCUGCA | 0.71
GUCCUGUGCUACACAUCGUAUGUACCGAAUCGGAAAAAAGGAAAAAAGGGAAAAAAGGAAAGUAUUAUGUUACGCCGUUCGGAUCUGCAC | -1.02
AGUCCUGUGCUACACAUCGUAUGUACCGAAUCGGGGAAAGGGGAGGGGAAAAAGGGGAAAGUAUUAUGUUACGCCGUUCGGAUCUGCACU | 0.316
UCAGUGUCUUACCCUGAAGAGAAAGUUGUAGGUUGGCUGUUGAAAUUCAUUCCUUAGAUAUGAUCAGUUUGAUUGCCCGGCUUUAUUGCC | -1.73
UGGGAGGUGGAUUUUGUUUGUUUUUUUAGCUCAUUUCCAGGGGUGGGAAUUUUUUUUUAAUAUGUGUCAUGAAUAAAGUUGUUUUUGAAA | 0.263

Series 5
Target: Histone acetyltransferase KAT6A, both winged helices, GST fusion (KAT6A, Homo sapiens, UniProt Q92794, residues 1-181)
Method: protein binding microarray
Form: double-stranded DNA, one strand shown
Medium: in vitro
Tested at: not given
Setting: 8-mer, flanks averaged, mean of 2 arrays, mostly near background
Baseline: not given
Direction: higher = stronger binding
Target sequence (chain): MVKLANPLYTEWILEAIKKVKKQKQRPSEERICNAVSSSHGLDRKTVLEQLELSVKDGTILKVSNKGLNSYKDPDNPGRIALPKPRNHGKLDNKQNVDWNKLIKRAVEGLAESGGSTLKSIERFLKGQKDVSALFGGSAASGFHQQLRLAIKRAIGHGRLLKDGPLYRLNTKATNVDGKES
Strand | E-score
AGGATCCC | -0.0844
AGAGACCC | -0.0229
ATAGCTTA | -0.0383
AACGTAGA | -0.0118
CTGCATTC | -0.0519
AATGCCCA | -0.283
CATCTGGA | -0.0896
CTTGCGGA | 0.103
AACAGCGG | 0.121
AATGGGTA | -0.0762
GCGTCAAC | 0.256
AGGGGGTG | -0.212
GAAATACA | -0.163
ATTCGTAG | 0.0224
CCACCTGA | -0.196
GGTCCCTA | -0.0353
TCCTGAGA | -0.147
AAGATAAT | -0.0549
GACGAGCC | -0.0149
ACTGGGAA | -0.126
TAGGTGGA | -0.278
CCGTAAGG | 0.144
CTCACGAG | -0.106
CGAGATAA | -0.0832
ATGAAACA | 0.0677

Some of these lines once more (series 1):
Strand | bound/input enrichment [ratio]
UCUUUAUGUUUUUUUCAUUGUUUUAAUGUCACGUGGAUUGUCUUUCCUGGGCUCUUUGUGAGCAGAAGGAUUUCAGAGAAGCUCGCAUAAUGAAAAGGGGAGACUCAUGGAUCUCACAAG | 0.282
AUCCACAGUCUGAUGGGCAACUUUGAAAAUGCUGUGGACUACUUCCACACAGCCCUUGGUCUUAGGCGAGAUGAUACAUUUUCUGUUACAAUGCUUGGUCAUUGCAUCGAAAUGUACAUU | 0.128
UCCAGACAGGAAGAACAAAACCCAUUCUAGCACUUUCAUUUUUAAAAAAAAAAAGGUUUAUAGCUUUUUGUUCCGCCCUCCUCCUCCCCAUUUCACAAUGUCCAUUCCUUAAGAAGGGUU | 12.7
AUCUGUAAGCCUUUGGUGGAAGAUAAUGAAGAAGAAAGUUGUUAUAUUUUACAUUCAAGCAGUAAUGAAGACAAGACUGAAUUUUCAGGAACAAUUCAUGAUAUAAAUUCAUCUUUAAUA | 0.146
UUUAUGAUAGUUUUGUUAGGUGACAGGACCAAAUGAAAAUAUUUUAUGUUUUCUCAUCACUUUAGAUUUUAUCAUUAUGUACAUUACUGGGUUUUUAGCAUUUCCUAAUGUGAAGUUUUA | 2.14
AUCAUUCAUGACCCUGGCCGCGGCGCUCCCCUCGCCAAAGUCGUCUUUCGGGAUCCCUACCGAUUCAAGAAGCGGACAGAGCUGUUCAUCGCAGCGGAGGGGAUCCACACUGGACAGUUC | 0.0357
UAAAAUCUUUGUACUUUUUACAUGAUUGCUGUAUGUAUAUUUUGUUUUAAAUCUAAUAAAAUUAGGGACAGAGAGUGACUCGCUGGGGUUCUUGGGGUCCUUGAGAAUUAAAUUUGUCAA | 0.323
GAGAAUCUGGAACUAAUGUCACAGCAUGGAUGUAAUGCCUGGAAAGUAUACAAUGAAAAUCUAGUUCAUAUGAUUGAACACGCACAGAAGGAACUUCAGAAGUUAAGAAAACAUAUUCAA | 0.405
CCAGAAUACACCAAAAAAAUAGAAAACCUCUGUGCUAUGGGUUUUGAUAGGAACGCAGUAAUAGUGGCCUUGUCUUCAAAAUCAUGGGAUGUAGAGACUGCAACAGAACUGCUUCUGAGU | 0.499
